Results collected from several papers.
Several values in a cell are separate wells, animals, samples, runs or records. ± marks the error that the study gave.
Cell line: A2780

CC(C)c1cccc(C(C)C)c1[N+]#[C][Pt-]([Cl])([Cl])=[C](Nc1cccc(CN[C](Nc2c(C(C)C)cccc2C(C)C)=[Au][Cl])c1)Nc1c(C(C)C)cccc1C(C)C — IC50 (cell growth or viability): > 100 µM
c1ccc(-c2nn(-c3nc4ccccc4s3)[n+](-c3ccccc3)n2)cc1 — IC50 (cell growth or viability, resazurin; 72 h): 23 µM
COc1ccccc1CNC[C@@](O)(COCc1ccccc1)[C@@H]1CC[C@@H](C)C[C@H]1OCc1ccccc1 — IC50 (cell growth or viability, MTT; 72 h): 2 µM
[Fe+2].c1ccc(N=P(c2ccccc2)(c2ccccc2)[c-]2cccc2)cc1.c1ccc(N=P(c2ccccc2)(c2ccccc2)[c-]2cccc2)cc1 — IC50 (cell growth or viability, MTT; 74 h): 40.3 µM
CC(C)=CCC1=C([O-])C(=O)c2ccccc2C1=O.CC(C)=CCC1=C([O-])C(=O)c2ccccc2C1=O.[Cu+2].c1ccc(-c2ccnc3c2ccc2c(-c4ccccc4)ccnc23)cc1 — IC50 (cell viability, MTT; 24 h): ~0.6 µM and 0.53 µM
Cc1cc(C)c([N+]#[C][Pd-]([Cl])([Cl])=[C](Nc2ccc(CN[C](NC(C)(C)C)=[Au][Cl])cc2)Nc2c(C)cc(C)cc2C)c(C)c1 — IC50 (cell growth or viability): 5 µM
CC(C)c1cccc(C(C)C)c1-n1ccn(-c2c(C(C)C)cccc2C(C)C)c1=[Se].[Cl][Au] — IC50 (cell growth or viability, MTT; 72 h): 0.6 µM
C=C1C(=O)[C@@]23CC[C@@H]4C(C)(C)CCC[C@@]4(COC(C)=O)[C@@H]2[C@@H](O)C[C@@H]1C3 (single isomer, unassigned) — IC50 (cell growth or viability, MTT): 2.6 µM
CC(C)c1cccc(C(C)C)c1[N+]#[C][Pd-]([Cl])([Cl])=[C](Nc1cccc(CN[C](Nc2c(C(C)C)cccc2C(C)C)=[Au][Cl])c1)Nc1c(C(C)C)cccc1C(C)C — IC50 (cell growth or viability): > 100 µM
C=C1C(=O)[C@@]23CC[C@@H]4C(C)(C)CCC[C@@]4(CO)[C@@H]2[C@@H](O)C[C@@H]1C3 — IC50 (cell growth or viability, MTT): > 20 µM
CCCCCCCCCCCCCCCCNC(=O)[O][Pt]([Cl])([Cl])[O]C(=O)CCC(=O)O.N.N — IC50 (cell viability, MTT; 48 h): 0.26 ± 0.04 µM
[Cl][Pd-2]1([Cl])[N+](=P(c2ccccc2)(c2ccccc2)c2ccccc2)Cc2cccc[n+]21 — IC50 (cell growth or viability, MTT): 6 to 7 µM
C[C@@H]1CC[C@@H]([C@@](O)(CNCc2ccccc2F)COCc2ccccc2)[C@H](OCc2ccccc2)C1 — IC50 (cell growth or viability, MTT; 72 h): 4 µM
C[N+]1(C)CC[NH2+][Pt-2]1([OH])([OH])([Cl])[Cl] — IC50 (cell viability, EZ4U; 96 h): 50 ± 4 µM
Cc1cc(C)c([N+]#[C][Pt-]([Cl])([Cl])=[C](Nc2ccc(CN[C](NC(C)(C)C)=[Au][Cl])cc2)Nc2c(C)cc(C)cc2C)c(C)c1 — IC50 (cell growth or viability): > 100 µM
CC(C)=CCC1=C([O-])C(=O)c2ccccc2C1=O.CC(C)=CCC1=C([O-])C(=O)c2ccccc2C1=O.[Cu+2].c1ccc(-c2ccccn2)nc1 — IC50 (cell viability, MTT; 72 h): 1.3 ± 0.6 µM
CC(C)c1cccc(C(C)C)c1-n1c(Cl)c(Cl)n(-c2c(C(C)C)cccc2C(C)C)c1=[Se].[Cl][Ag] — IC50 (cell growth or viability, MTT; 72 h): 0.4 µM
CC(=O)OC[C@@]12CCC[C@@](C)(CO)[C@H]1CC[C@@]13C[C@@H](C[C@H](O)[C@H]12)[C@H](C)C3=O — IC50 (cell growth or viability, MTT): > 20 µM
[Cl][Au+][Cl].[O-][Cl+3]([O-])([O-])[O-].c1ccc(P(=NCc2ccccn2)(c2ccccc2)c2ccccc2)cc1 — IC50 (cell growth or viability, MTT; 74 h): 19 µM
C[N+]1(C)CC[NH2+][Pt-2]1([OH])([Cl])([Cl])[O]C(=O)CCC(=O)OCCOC(=O)CCC(=O)[O][Pt-2]1([OH])([Cl])([Cl])[NH2+]CC[N+]1(C)C — IC50 (cell viability, EZ4U; 96 h): 10 ± 2 µM
c1ccc(-c2nn(-c3ccccn3)[n+](-c3ccccc3)n2)cc1 — IC50 (cell growth or viability, resazurin; 72 h): 16 µM
CC1(C)OB(c2ccc(COC(=O)N[c-]3cccc3)cc2)OC1(C)C.[Fe+2].c1cc[cH-]c1 — IC50 (cell growth or viability, MTT; 48 h): 23.9 µM
CC(C)c1cccc(C(C)C)c1[N+]#[C][Pt-]([Cl])([Cl])=[C](Nc1ccc(CN[C](Nc2c(C(C)C)cccc2C(C)C)=[Au][Cl])cc1)Nc1c(C(C)C)cccc1C(C)C — IC50 (cell growth or viability): 13.4 µM
Cc1c([O][Ru][Cl])c(=O)ccn1CCCCn1ccc(=O)c([O][Ru][Cl])c1C.Cc1ccc(C(C)C)cc1.Cc1ccc(C(C)C)cc1 — IC50 (cell growth or viability, MTT; 96 h): 41 µM
COc1ccc(COC[C@](O)(CNCc2ccccc2)[C@@H]2CC[C@@H](C)C[C@H]2OCc2ccc(OC)cc2)cc1 — IC50 (cell growth or viability, MTT; 72 h): 0.93 µM
CC(C)c1cccc(C(C)C)c1N1CCN(c2c(C(C)C)cccc2C(C)C)C1=[Se].[Cl][Ag] — IC50 (cell growth or viability; 72 h, 3D culture): 23.5 µM
COc1ccc(CNC[C@](O)(COCc2ccccc2)[C@@H]2CC[C@@H](C)C[C@H]2OCc2ccccc2)cc1 — IC50 (cell growth or viability, MTT; 72 h): 2.5 µM
Cc1c(C)n(-c2c(C(C)C)cccc2C(C)C)c(=[Se])n1-c1c(C(C)C)cccc1C(C)C.[Cl][Au] — IC50 (cell growth or viability, MTT; 72 h): 0.5 µM
[Fe+2].c1cc[cH-]c1.c1ccc(P(=NCc2ccccn2)(c2ccccc2)[c-]2cccc2)cc1 — IC50 (cell growth or viability, MTT; 74 h): 36.7 µM
CC(C)c1cccc(C(C)C)c1N=[C](NCc1cccc(N)c1)[AuH][Cl] — IC50 (cell growth or viability): 2.8 µM
CC(=O)OC[C@]1(C)CCC[C@]2(CO)[C@@H]1CC[C@@]13C[C@@H](C[C@H](O)[C@H]12)[C@H](C)C3=O — IC50 (cell growth or viability, MTT): > 20 µM
C#CCN(C(=O)OCc1ccc(F)cc1)[c-]1cccc1.[Fe+2].c1cc[cH-]c1 — IC50 (cell growth or viability, MTT; 48 h): 16.7 µM
Cc1cc(C)c([N+]#[C][Pd-]([Cl])([Cl])=[C](Nc2cccc(CN[C](NC(C)(C)C)=[Au][Cl])c2)Nc2c(C)cc(C)cc2C)c(C)c1 — IC50 (cell growth or viability): > 100 µM
O=C(N[c-]1cccc1)OCc1ccc(F)cc1.[Fe+2].c1cc[cH-]c1 — IC50 (cell growth or viability, MTT; 48 h): 15 µM
C[C@@H]1CC[C@@H]([C@](O)(CNCc2ccc(F)cc2)COCc2ccccc2)[C@H](OCc2ccccc2)C1 — IC50 (cell growth or viability, MTT; 72 h): 11.9 µM
Cc1cc(C)c([N+]#[C][Pd-]([Cl])([Cl])=[C](Nc2ccc(CN[C](Nc3c(C(C)C)cccc3C(C)C)=[Au][Cl])cc2)Nc2c(C)cc(C)cc2C)c(C)c1 — IC50 (cell growth or viability): 30 µM
C[C@@H]1CC[C@@H]([C@@](O)(CNCc2cccc(F)c2)COCc2ccccc2)[C@H](OCc2ccccc2)C1 — IC50 (cell growth or viability, MTT; 72 h): 0.91 µM
COc1cc2c(cc1OCCCOc1no[n+]([O-])c1S(=O)(=O)c1ccccc1)CCC1C2CCC2(C)C(O)CCC12 (centres unmarked) — IC50 (cell growth or viability, MTT; 48 h): 0.104 µM

A few entries again:
C[N+]1(C)CC[NH2+][Pt-2]1([OH])([OH])([Cl])[Cl] — IC50 (cell viability, EZ4U; 96 h): 50 ± 4 µM
Cc1cc(C)c([N+]#[C][Pt-]([Cl])([Cl])=[C](Nc2ccc(CN[C](NC(C)(C)C)=[Au][Cl])cc2)Nc2c(C)cc(C)cc2C)c(C)c1 — IC50 (cell growth or viability): > 100 µM
CC(C)=CCC1=C([O-])C(=O)c2ccccc2C1=O.CC(C)=CCC1=C([O-])C(=O)c2ccccc2C1=O.[Cu+2].c1ccc(-c2ccccn2)nc1 — IC50 (cell viability, MTT; 72 h): 1.3 ± 0.6 µM
